Results pooled from the literature.
Protocols differ between the studies behind these lines. Numbers after ± are the reported error.

SMILES | cell line | test | setting | IC50
O=C(C[P+]([Au-][Cl])(c1ccccc1)c1ccccc1)[O][Ti+2][O]C(=O)C[P+]([Au-][Cl])(c1ccccc1)c1ccccc1.c1cc[cH-]c1.c1cc[cH-]c1 | CAKI-1 | cell viability, XTT | 24 h | 6 µM
C=C(C(=O)OC)[C@@H]1CC[C@@]2(C)CCC(=O)C(C)=C2C1 | human Neutrophil | elastase release, inhibitor | – | > 10 µM
CNC(=O)c1cc(Oc2ccc(NC(=O)c3ccc(-c4cccc(OC(=O)CCC(=O)OC5OC6OC7(C)CCC8C(C)CCC(C5C)C68OO7)c4)cn3)cc2)ccn1 (stereo not drawn) | Huh-7 | cell growth or viability, MTT | 72 h | 1.65 µM
CN(C)C(=O)c1cncc(N2Cc3cn(Cc4ccc(F)cc4)nc3C2)n1 | HEK293 expressing GluA1 and GluA2 | cell death, CellTox Green | 24 h, together with: glutamate, AMPA 10 µM | 0.035 µM
O=C(Cc1ccc2ccccc2c1)N[C@H](Cc1ccccc1)C(=O)N[C@H](Cc1ccc(O)cc1)C(=O)N[C@H](Cc1ccccc1)C(=O)N[C@H](Cc1ccc(O)cc1)C(=O)O | SAOS-2 | cell growth or viability, MTT | – | > 500 µg/mL
Cc1cc(C)n(C(C(=O)OC(C)C)n2nc(C)cc2C)n1.F[P-](F)(F)(F)(F)F.[Cu+].c1ccc(P(c2ccccc2)c2ccccc2)cc1 | PSN1 | cell growth or viability, MTT | 72 h | 21.9 µM
Cc1cc(C)c(-n2ccn(-c3c(C)cc(C)cc3C)c2=[Se])c(C)c1.[Cl][Au] | LoVo-OXP (oxaliplatin-resistant) | MTT | 72 h | 2.3 ± 0.6 µM
COC(=O)C1CN1S(=O)(=O)c1ccccc1 (stereo not drawn) | Caco-2 | cell growth or viability, SRB | 72 h | 3.37 µg/mL
[Cl][Au].[Se]=c1n(C2CCCCC2)ccn1C1CCCCC1 | A-375 | cell growth or viability, MTT | 72 h | 0.4 µM
NC(=O)N/N=C/c1ccc(OCc2ccccc2)cc1 | IMR-32 | cell growth or viability, MTT | 24 h | 11.3 µg/mL
COc1cc(-c2oc3cc(O)c(OC)c(O)c3c(=O)c2OC)ccc1O | human Neutrophil | elastase release, inhibitor | – | > 10 µM
Cc1cc(C)c(N2CCN(c3c(C)cc(C)cc3C)C2=[Se])c(C)c1.[Cl][Au] | LoVo-OXP (oxaliplatin-resistant) | MTT | 72 h | 2.5 ± 0.5 µM
COc1cc(C(c2c(C)nn(-c3ccccc3)c2O)c2c(C)nn(-c3ccccc3)c2O)cc(OC)c1OC | various human cancer cell lines | cell growth, MTT | – | 5.45 to 18.3 µM
COc1c(Oc2c(O)c(OC)c(OC)c3c2ccc2cc(O)ccc23)cc2c(c1OC)-c1ccc(O)cc1CC2 | EA.hy 926 | cell growth or viability, CCK-8 | 24 h | 21.8 µM
Cc1nn(-c2ccccc2)c(O)c1C(c1cccs1)c1c(C)nn(-c2ccccc2)c1O | Ishikawa | cell growth or viability, MTT | 48 h | > 40 µM
CCCC[C@@H]1NC(=O)COC[C@H]2CCCN2C(=O)[C@H](CCCCN)NC(=O)[C@H](CC(C)C)NC(=O)[C@H](CCCCN)NC(=O)[C@H](CC(C)C)NC(=O)[C@H](CCCCN)NC(=O)COC[C@H]2CCCN2C(=O)[C@H](Cc2c[nH]c3ccccc23)NC(=O)[C@H](C)NC(=O)[C@H](C(C)C)NC(=O)[C@H](C(C)C)NC1=O | NCI-H929 | viability, TO-PRO-3 staining, flow cytometry | – | 26.9 µM
CC[C@H](C)[C@H](NC(=O)[C@H](CCCNC(=N)N)NC(=O)[C@H](CCCNC(=N)N)NC(=O)[C@H](CCCNC(=N)N)NC(=O)[C@@H](NC(=O)[C@@H](NC(=O)[C@H](C)NC(=O)[C@H](CCCNC(=N)N)NC(=O)[C@H](CCCNC(=N)N)NC(=O)[C@H](CCCNC(=N)N)NC(=O)[C@@H]1CCCN1C(=O)[C@@H](N)CCCNC(=N)N)[C@@H](C)O)[C@@H](C)O)C(=O)N[C@H](C(=O)N[C@H](C(=O)NCC(=O)N[C@H](C(=O)N[C@@H](CCCNC(=N)N)C(=O)N[C@@H](CCCNC(=N)N)C(=O)N[C@@H](CCCNC(=N)N)C(=O)N[C@@H](CCCNC(=N)N)C(N)=O)[C@@H](C)O)[C@@H](C)O)[C@@H](C)O | SK-BR-3 | cell viability, CellTiter-Blue | 24 h, serum-free medium | 71.2 ± 1.1 µM
CNC(=O)c1cc(Oc2ccc(NC(=O)c3ccc(-c4ccccc4OC(=O)CCC(=O)OC4OC5OC6(C)CCC7C(C)CCC(C4C)C57OO6)cn3)cc2)ccn1 (stereo not drawn) | Hep3B | cell growth or viability, MTT | 72 h | 8.67 µM
NC1CCCCC1N.O=C1[O][Pt]([O]C(=O)c2ccc(P(c3ccccc3)c3ccccc3)cc2)([O]C(=O)c2ccc(P(c3ccccc3)c3ccccc3)cc2)[O]C1=O.[Cl][Au].[Cl][Au] | CAKI-1 | cell growth or viability, resazurin | 72 h | 3.01 µM
CNC(=O)c1cc(Oc2ccc(NC(=O)c3ccc(-c4ccc(COC(=O)CCC(=O)OC5OC6OC7(C)CCC8C(C)CCC(C5C)C68OO7)cc4)cn3)cc2)ccn1 (stereo not drawn) | Huh-7 | cell growth or viability, MTT | 72 h | 7.79 µM
CSCC[C@H](N)C(=O)N[C@@H](C)C(=O)N[C@@H](CCCNC(=N)N)C(=O)N[C@@H](CCCNC(=N)N)C(=O)N[C@@H](CC(=O)O)C(=O)N[C@@H](CCCCN)C(=O)N[C@H](C(=O)N[C@@H](CC(=O)O)C(=O)N[C@@H](Cc1ccccc1)C(=O)N[C@@H](C)C(=O)N[C@@H](CCCNC(=N)N)C(=O)N[C@@H](CCCNC(=N)N)C(=O)N[C@@H](CCCNC(=N)N)C(=O)N[C@@H](CCCNC(=N)N)C(=O)NCCCCCC(=O)NCCCCC(NC(=O)CCCCCNC(=O)[C@H](CCCNC(=N)N)NC(=O)[C@H](CCCNC(=N)N)NC(=O)[C@H](CCCNC(=N)N)NC(=O)[C@H](CCCNC(=N)N)NC(=O)[C@H](C)NC(=O)[C@H](Cc1ccccc1)NC(=O)[C@H](CC(=O)O)NC(=O)[C@@H](NC(=O)[C@H](CCCCN)NC(=O)[C@H](CC(=O)O)NC(=O)[C@H](CCCNC(=N)N)NC(=O)[C@H](CCCNC(=N)N)NC(=O)[C@H](C)NC(=O)[C@@H](N)CCSC)[C@@H](C)O)C(=O)NCCCCC(NC(=O)C(CCCCNC(=O)CCCCCNC(=O)[C@H](CCCNC(=N)N)NC(=O)[C@H](CCCNC(=N)N)NC(=O)[C@H](CCCNC(=N)N)NC(=O)[C@H](CCCNC(=N)N)NC(=O)[C@H](C)NC(=O)[C@H](Cc1ccccc1)NC(=O)[C@H](CC(=O)O)NC(=O)[C@@H](NC(=O)[C@H](CCCCN)NC(=O)[C@H](CC(=O)O)NC(=O)[C@H](CCCNC(=N)N)NC(=O)[C@H](CCCNC(=N)N)NC(=O)[C@H](C)NC(=O)[C@@H](N)CCSC)[C@@H](C)O)NC(=O)CCCCCNC(=O)[C@H](CCCNC(=N)N)NC(=O)[C@H](CCCNC(=N)N)NC(=O)[C@H](CCCNC(=N)N)NC(=O)[C@H](CCCNC(=N)N)NC(=O)[C@H](C)NC(=O)[C@H](Cc1ccccc1)NC(=O)[C@H](CC(=O)O)NC(=O)[C@@H](NC(=O)[C@H](CCCCN)NC(=O)[C@H](CC(=O)O)NC(=O)[C@H](CCCNC(=N)N)NC(=O)[C@H](CCCNC(=N)N)NC(=O)[C@H](C)NC(=O)[C@@H](N)CCSC)[C@@H](C)O)C(N)=O)[C@@H](C)O (stereo partly drawn) | BMMs from C57BL/6 mice | osteoclast differentiation | 3 days, together with: RANKL | 0.16 µM
CC[C@H](C)[C@H](NC(=O)CNC(=O)[C@H](C)NC(=O)[C@@H]1CCCN1C(=O)CNC(=O)[C@H](C)NC(=O)[C@H](CCC(=O)O)NC(=O)[C@H](C)NC(=O)[C@H](CC(=O)O)NC(=O)[C@H](C)NC(=O)[C@H](CCC(=O)O)NC(=O)[C@H](C)NC(=O)[C@H](CCC(=O)O)NC(=O)[C@@H]1CCCN1C(=O)[C@H](CCC(=O)O)NC(=O)CNC(C)=O)C(=O)NCC(=O)N[C@@H](C)C(=O)N[C@H](C(=O)N[C@@H](CC(C)C)C(=O)N[C@@H](CCCCN)C(=O)N[C@H](C(=O)N[C@@H](CC(C)C)C(=O)N[C@H](C(=O)N[C@H](C(=O)NCC(=O)N[C@@H](CC(C)C)C(=O)N1CCC[C@H]1C(=O)N[C@@H](C)C(=O)N[C@@H](CC(C)C)C(=O)N[C@H](C(=O)N[C@@H](CO)C(=O)N[C@@H](Cc1c[nH]c2ccccc12)C(=O)N[C@H](C(=O)N[C@@H](CCCCN)C(=O)N[C@@H](CCCNC(=N)N)C(=O)N[C@@H](CCCCN)C(=O)N[C@@H](CCCNC(=N)N)C(=O)N[C@@H](CCC(N)=O)C(=O)N[C@@H](CCC(N)=O)C(N)=O)[C@@H](C)CC)[C@@H](C)CC)[C@@H](C)O)[C@@H](C)O)C(C)C)C(C)C | MCF7 vector control (FAP-negative) | cell viability, MTT | 72 h | 47.9 ± 2.9 µM
COC1=C[C@@H]2[C@@H]3Cc4ccc(OC)c(OC(=O)CN(C)C(=O)OC(C)(C)C)c4[C@]2(CCN3C)CC1=O | RAW264.7 | NO release, inhibitor, Griess | LPS-stimulated | 59.3 µM
CC[C@@H](C)[C@@H](NC(=O)[C@@H](CCCCN)NC(=O)[C@H](NC(=O)[C@@H](CCC(N)=O)NC(=O)[C@@H](CCCNC(=N)N)NC(=O)[C@@H](CC(C)C)NC(=O)CNC(=O)[C@@H](Cc1ccccc1)NC(=O)CNC(=O)[C@@H](Cc1ccc(O)cc1)NC(=O)CNC(=O)[C@@H](CCCCN)NC(=O)[C@H](NC(=O)[C@@H](Cc1ccccc1)NC(=O)[C@H](NC(=O)[C@@H](CC(=O)O)NC(=O)[C@@H](CCCNC(=N)N)NC(=O)[C@@H](C)NC(=O)[C@@H](CO)NC(=O)[C@@H](CCCCN)NC(=O)CNC(=O)[C@@H](CC(C)C)NC(=O)[C@@H](CC(=O)O)NC(=O)[C@@H](C)NC(=O)[C@@H](Cc1ccc(O)cc1)NC(=O)[C@H](NC(=O)[C@H]1CCCN1C(=O)[C@H]1CCCN1C(=O)[C@H](NC(=O)[C@@H](C)NC(=O)[C@H](N)CCSC)C(C)C)[C@H](C)O)C(C)C)[C@H](C)O)[C@H](C)CC)C(=O)N[C@H](Cc1c[nH]c2ccccc12)C(=O)N[C@H](Cc1ccccc1)C(=O)N[C@H](CCC(N)=O)C(=O)N[C@H](CC(N)=O)C(=O)N[C@H](CCCNC(=N)N)C(=O)N[C@H](CCCNC(=N)N)C(=O)N[C@H](CCSC)C(=O)N[C@H](CCCCN)C(=O)N[C@H](Cc1c[nH]c2ccccc12)C(=O)N[C@H](CCCCN)C(=O)N[C@H](CCCCN)C(=O)O | CLL patient PBMCs | cell death, PI staining flow cytometry | 90 min, room temperature, serum-free medium | 1.5 µM
CC(C)C[C@H](NC(=O)[C@H](CCC(N)=O)NC(=O)[C@@H]1CSSC[C@@H]2NC(=O)[C@H](CC(N)=O)NC(=O)[C@@H](NC(=O)[C@@H](CCCNC(=N)N)NC(=O)[C@@H](CCCNC(=N)N)NC(=O)[C@@H](CCCNC(=N)N)NC(=O)[C@@H](CCCNC(=N)N)NC(=O)[C@@H](CCCNC(=N)N)NC(=O)[C@@H](CCCNC(=N)N)NC(=O)[C@@H](CCCNC(=N)N)NC(=O)[C@@H](CCCNC(=N)N)NC(=O)[C@H](N)CCCNC(=N)N)CSSC[C@H](NC(=O)[C@H](Cc3ccccc3)NC(=O)[C@H](C)NC(=O)[C@H]([C@@H](C)O)NC(=O)[C@H](CCC(=O)O)NC(=O)[C@@H]3CCCN3C(=O)[C@H](C)NC(=O)[C@H](CCCCN)NC2=O)C(=O)N[C@@H](C)C(=O)N[C@@H](Cc2ccc(O)cc2)C(=O)N[C@@H](Cc2c[nH]c3ccccc23)C(=O)N1)C(N)=O | HCT-116 p53-/- | cytotoxicity | – | ~6 µM
O=C(Nc1ccc(Br)cc1)c1cc(Br)cc(Br)c1O | PANC-1 | cell growth or viability, resazurin | 72 h | 10.2 µM
O=C1CC2(C1)C(=O)[O][Pt]1([Cl])([O]C(=O)C(Cl)Cl)([NH][C@@H]3CCCC[C@H]3[NH]1)[O]C2=O | BGC803 | cell growth or viability, MTT | – | 7.63 µM
C[C@@H]1CCC2[C@@H](C)[C@@H](OCCC[P+](c3ccccc3)(c3ccccc3)c3ccccc3)O[C@@H]3O[C@@]4(C)CCC1[C@@]23OO4 (stereo partly drawn) | OVCAR-3 | cell growth or viability, MTT | 72 h | 0.134 µM
NC(=NN=Cc1cccs1)[S][Ru+]([Cl])([P](c1ccccc1)(c1ccccc1)c1ccccc1)[P](c1ccccc1)(c1ccccc1)c1ccccc1.[Cl-] | HCC70 | cell growth or viability, resazurin | 96 h | 6.26 µM
CC(C)C[C@H](NC(=O)CCNc1ccc([N+](=O)[O-])c2nonc12)C(=O)N[C@@H](CC(C)C)C(=O)N[C@@H](CC(C)C)C(=O)N[C@@H](CC(C)C)C(=O)N[C@@H](Cc1ccc(OP(=O)(O)O)cc1)C(=O)O | SAOS-2 | cell growth or viability, MTT | 24 h | 122 µM

For quick reference, copied from above:
SMILES | cell line | test | setting | IC50
[Cl][Au].[Se]=c1n(C2CCCCC2)ccn1C1CCCCC1 | A-375 | cell growth or viability, MTT | 72 h | 0.4 µM
NC(=O)N/N=C/c1ccc(OCc2ccccc2)cc1 | IMR-32 | cell growth or viability, MTT | 24 h | 11.3 µg/mL
COc1cc(-c2oc3cc(O)c(OC)c(O)c3c(=O)c2OC)ccc1O | human Neutrophil | elastase release, inhibitor | – | > 10 µM
